Measured values collected from several papers.
Each line is one published result; not all experiments were run side by side. Several values in a cell are separate wells, animals, samples, runs or records. ± gives the spread as reported.

| Compound | cell line | assay | test system | setting | IC50 |
| --- | --- | --- | --- | --- | --- |
| CCN(Cc1c(Cl)cccc1Cl)c1ccc(CO)c(Cl)c1 | RBE | cell viability, CellTiter-Glo |  |  | 150 nM |
| Cc1nc(Nc2ncc(C(=O)Nc3c(C)cccc3Cl)s2)cc(N2CCN(CCO)CC2)n1 | CAPAN-1 | cell viability, MTT |  | mutant KRAS liver metastasis | 313 nM |
| CCNCCCn1c2c(c3cc(OC)c(OC)cc3c1=O)C(=O)c1cc3c(nc1-2)OCO3 | CCRF-CEM leukaemia cells | cytotoxicity, MTS |  | 72 h | 49 ± 15 nM |
| Cc1cc(Nc2ncnc3ccc(NC4=NC(C)(C)CO4)cc23)ccc1Oc1ccn2ncnc2c1 | Ba/F3 expressing HER2 S335C | cell growth, inhibitor, CellTiter-Glo |  |  | 11.7 nM |
| CCCCN1C[C@H](O)[C@@H](O)[C@@H](O)[C@H]1CO | sample A patient fibroblasts | Gb3 level lowering, LC-MS/MS, refers to: Gb3 d18:1/20:0 |  | 216 h | 10900 nM |
| CCCCn1cnc2ccc(-c3ccc(NC(C)=O)nc3)cc2c1=O | NSCLC cells | cell growth |  |  | > 10000 nM |
| COc1ccc(Cn2nc(-c3ccc(CO)o3)c3ccccc32)cc1 | RBE | cell viability, CellTiter-Glo |  |  | 1170 nM |
| Cc1c(C(=O)O)ccc2c3n(nc12)[C@@H]1[C@H](C3)N(CC2CC2)[C@@]2(C(=O)Nc3cc(Cl)ccc32)[C@H]1c1cccc(Cl)c1F | LS180 (MDM2 non-amplified) | cell growth, alamarBlue |  | 120 h | 34 nM |
| Cc1nc(NC(=O)N2CCC[C@H]2C(N)=O)sc1-c1ccnc(C(C)(C)C(F)(F)F)c1 | EFM-19 | growth rate inhibition, CellTiter-Glo |  | 120 h | 158 nM |
| COc1ccccc1OCC(O)CN1CCN(CC(=O)Nc2c(C)cccc2C)CC1 (stereo not shown) | hiPSC-derived cardiomyocytes | beat period change, field potential recording |  | 30 min, decoupled electrode condition | 5890 nM |
| CC(c1ccccc1)n1nc(-c2ccc(CO)o2)c2ccccc21 (stereo not shown) | RBE | cell viability, CellTiter-Glo |  |  | 4160 nM and ~4000 nM |
| C=CC(=O)N1CCC([C@@H]2CCNc3c(C(N)=O)c(-c4ccc(Oc5ccccc5)cc4)nn32)CC1 | Rec1 | calcium flux |  | together with: anti-IgM | 4.3 nM |
| CO[C@H]1[C@H](O[C@H]([C@H]2O[C@@H](n3ccc(=O)[nH]c3=O)[C@H](O)[C@@H]2O)[C@H](NCCCNC(=O)[C@@H](NC(=O)[C@@H](NC(=O)N[C@H](C(=O)O)C(C)C)[C@@H]2CCN=C(N)N2)[C@@H](O)C(C)C)C(=O)O)O[C@H](CN)[C@H]1O | breast cancer, MCF-10A and Vero | cell viability, WST-1 |  | range over all lines | > 35000 nM |
| C=CC(=O)NC1CCN(c2ncc3ncnc(Nc4ccc(Oc5ccc6c(c5)ncn6C)c(C)c4)c3n2)CC1 | Ba/F3 expressing HER2 S335C | cell growth, inhibitor, CellTiter-Glo |  |  | 3.5 nM |
| CC(C)NCC(O)c1ccc(NS(C)(=O)=O)cc1 (stereo not shown) | hiPSC-derived cardiomyocytes | beat period change, field potential recording |  | 30 min, coupled electrode condition | 7610 nM |
| COc1cc2c3c(n(CCCNCCO)c(=O)c2cc1OC)-c1nc2c(cc1C3=O)OCO2 | CCRF-CEM leukaemia cells | cytotoxicity, MTS |  | 72 h | 57 ± 14 nM |
| Cn1ncnc1[C@H]1c2n[nH]c(=O)c3cc(F)cc(c23)N[C@@H]1c1ccc(F)cc1 | SK-OV-3 BRCA2 knockout | colony formation |  |  | 0.689 nM |
| CC(=O)C1=C(C)Nc2sc(C(=O)c3ccc(Cl)c(Cl)c3)c(N)c2C1c1cccnc1 (stereo not shown) | BV-2 | nuclear intensity, high-content imaging |  | geometric mean | 20100 nM |
| CCN(Cc1ccc(F)cc1F)c1ccc(CO)c(Cl)c1 | RBE | cell viability, CellTiter-Glo |  |  | 210 nM |
| O=C(C[C@@H](C(F)F)n1ccc(F)n1)N1CCC(O)(Cn2cnc3c(cnn3-c3ccc(F)cc3)c2=O)CC1 | CAPAN-1 | cell viability, SRB |  | 5 days | 50 ± 10 nM |

| Compound | cell line | assay | test system | setting | IC50 |
| --- | --- | --- | --- | --- | --- |
| Nc1ccn([C@@H]2O[C@H](CO)[C@@H](O)C2(F)F)c(=O)n1 | HPAC | cell viability, MTT |  | mutant KRAS primary | > 10000 nM |
| Cc1ccc(C(=O)Nc2ccc(CN3CCN(C)CC3)c(C(F)(F)F)c2)cc1C#Cc1cnc2cccnn12 | LS174T | WNT reporter gene, inhibitor, TCF/LEF luciferase |  |  | 619 nM |
| Cc1[nH]c(/C=C2\C(=O)Nc3ccc(S(=O)(=O)N(C)c4cccc(Cl)c4)cc32)c(C)c1C(=O)N1CCN(C)CC1 | NCI-H2228 (EML4-ALK) | cell growth |  | 3 days | 8320 ± 3010 nM |
| CC#CC(=O)N1CCC[C@H]1c1nc(-c2ccc(C(=O)Nc3ccccn3)cc2)c2c(N)nccn12 | Rec1 | calcium flux |  | together with: anti-IgM | 72.7 nM |
| COc1cc2nccc(Oc3ccc(NC(=O)C4(C(=O)Nc5ccc(F)cc5)CC4)cc3)c2cc1OC | NCI-H2228 (EML4-ALK) | cell growth |  | 3 days | 5190 ± 580 nM |
| C[C@H](Nc1ccc2c(c1)OCCn1cc(N3C(=O)OC[C@H]3C(F)F)nc1-2)C(N)=O | ESS-1 | growth rate inhibition, CellTiter-Glo |  | 120 h | 27.5 nM |
| [NH2][Pt]([NH2])([Cl])[Cl] | RWPE-1 normal prostate | cell viability, MTT |  | 72 h | 4500 ± 500 nM |
| COc1cc2c(Oc3ccc(NC(=O)C4(C(=O)Nc5ccc(F)cc5)CC4)cc3F)ccnc2cc1OCCCN1CCOCC1 | NCI-H2228 (EML4-ALK) | cell growth |  | 3 days | 820 ± 110 nM |
| N#Cc1ccc2c(CN3CCOCC3)cc(-c3ccc(C4CCC(=O)N4)cc3)nc2c1 (stereo not shown) | mouse aortic smooth muscle cells | cell migration, scratch wound |  | together with: CML-HSA 10 µg/mL | 12 ± 7 nM |
| Clc1ccc(COc2cncc(-c3cnn(C4CCNCC4)c3)c2)c(Cl)c1 | BV-2 | nuclear intensity, high-content imaging |  | geometric mean | 5180 nM |
| O=C(c1cc(Cc2n[nH]c(=O)c3ccccc23)ccc1F)N1CCN(C(=O)C2CC2)CC1 | SK-OV-3 BRCA2 knockout | colony formation |  |  | 9.71 nM |
| OCc1ccc(-c2nn(Cc3ccccc3)c3c2CCCC3)o1 | RBE | cell viability, CellTiter-Glo |  |  | 1520 nM |
| CS(=O)(=O)CCNCc1ccc(-c2ccc3ncnc(Nc4ccc(OCc5cccc(F)c5)c(Cl)c4)c3c2)o1 | Ba/F3 expressing HER2 S335C | cell growth, inhibitor, CellTiter-Glo |  |  | 98.4 nM |
| C[C@H]1[C@H](OC(=O)CCC(=O)O)O[C@@H]2O[C@@]3(C)CC[C@H]4[C@H](C)CC[C@@H]1[C@@]24OO3 | primary AML blasts 2 | cell viability | human | 96 h | 47600 nM |
| COCCN(Cc1ccc(F)cc1)c1ccc(CO)c(Cl)c1 | RBE | cell viability, CellTiter-Glo |  |  | 370 nM |
| CC#Cc1cncc(-c2ccc3c(c2)[C@@]2(N=C(C)C(N)=N2)[C@]2(CC[C@H](OC)CC2)C3)c1 | SH-SY5Y, APP overexpressing, wild type | Aβ40 production |  |  | 0.08 nM |
| CCN(Cc1cccc(C)c1)c1ccc(CO)c(Cl)c1 | RBE | cell viability, CellTiter-Glo |  |  | 240 nM |
| O=C1NC(=NCc2cccs2)S/C1=C\c1ccc2ncccc2c1 | 786-0 renal | cell growth, MTS |  |  | 7770 nM |
| CC(C)c1ccc(C2C(C#N)=C3N=C(N)c4ccccc4N3C3=C2C(=O)CCC3)cc1 (stereo not shown) | BV-2 | cell count, high-content imaging |  | geometric mean | 21000 nM |
| CCN(Cc1c(F)cccc1F)c1ccc(CO)c(Cl)c1 | RBE | cell viability, CellTiter-Glo |  |  | 70 nM |
